Results of several laboratories.
Lines come from different studies, so protocols differ.

| SMILES | target | test | test system | conditions | how to read | quantity | value |
| --- | --- | --- | --- | --- | --- | --- | --- |
| N[C@H](C(=O)N1CCCC1)C1CCN(c2nccc3c(-c4ncc(Cl)cc4Cl)cccc23)CC1 | Substance-P receptor (TACR1, Homo sapiens, UniProt P25103) | functional response, agonist | – | 10 µM | – | response | 2% |
| O=C1NC(=O)c2c1c1cc(F)c[n+]3c1c1c2c2cc(O)ccc2[n]1[Ru-4]312([N]=C=S)[S+]3CC[S+]1CC[S+]2CC3 (stereo not drawn) | Epidermal growth factor receptor (EGFR, Homo sapiens, UniProt P00533, T790M) | enzyme activity | – | 100 nM, human enzyme, together with: 10 µM ATP | reference: untreated | remaining activity | 83% |
| CC(C)[C@H]1NC(=O)C[C@H]2/C=C/CCSSC[C@@H](NC1=O)C(=O)N[C@H](Cc1cccc3ccccc13)C(=O)NCC(=O)O2 | Serine/threonine-protein kinase N1 (PKN1, Homo sapiens, UniProt Q16512) | enzyme activity, inhibitor | – | 10 µM | – | inhibition | 9.1% |
| CN(C)[C@H]1C[C@@]23CC[C@@]4(O2)C(=CC[C@]2(C)[C@@H](c5ccc6ccncc6c5)CC[C@H]24)C=C3[C@@H](O)[C@@H]1O | Cyclin-dependent kinase 6 (CDK6, Homo sapiens, UniProt Q00534) | ATP probe labelling, inhibitor, KiNativ profiling | – | 1 µM | – | inhibition | -0.6% |
| CS(C)(=O)=Nc1ccc(-c2ccc(-c3nc4cc(O[C@@H]5CO[C@H]6[C@@H]5OC[C@H]6O)[nH]c4cc3F)cc2)cc1 | Tyrosine-protein kinase ITK/TSK (ITK, Homo sapiens, UniProt Q08881) | enzyme activity, inhibitor | – | 10 µM | – | inhibition | 8% |
| CC[C@H](C)[C@H](NC(=O)[C@H](CCCNC(=N)N)NC(=O)[C@H](CCCNC(=N)N)NC(=O)[C@H](CC(C)C)NC(=O)[C@H](Cc1ccccc1)NC(=O)CNC(=O)CNC(=O)[C@@H](N)Cc1ccc(O)cc1)C(=O)N[C@@H](CCCNC(=N)N)C(=O)N1CCC[C@H]1C(=O)N[C@@H](CCCCN)C(=O)N[C@@H](CC(C)C)C(=O)N[C@@H](CCCCN)C(=O)O | Probable G-protein coupled receptor 139 (GPR139, Homo sapiens, UniProt Q6DWJ6) | G protein activation, agonist, BRET, refers to: Gα14 | HEK-293T/17 | 40 µM | reference: GαoA response | Emax | 18.3% |
| C#CCCCCOc1ccc2c(c1)CCCN2C(=O)CCl | Gem-associated protein 4 (Homo sapiens, UniProt P57678) | mass spectrometry profiling, refers to: GEMIN4 | H460 cell lysate | 100 µM over 10 µM, UniProt P57678 | reference: high over low concentration | reactivity ratio | 1.45 |
| CC(C)CC(O)(CC(C)C)c1cn(C(=O)N2CCCC2)nn1 | Lysosomal protective protein (Ctsa, Mus musculus, UniProt P16675) | enzyme activity, inhibitor, competitive ABPP-SILAC, refers to: Ctsa | mouse T-cells | concentration not given, 4 h, treated in situ | reference: DMSO | activity ratio | 1.32 |
| CC1CN1c1cc(O)c2nc(N)sc2c1 (stereo not drawn) | thioredoxin | mass spectrometry | – | 50 µM, 4 h, 37 °C, together with: thioredoxin 2 µM | – | covalent adduct formation | < 10% |

Some of these lines once more:
| SMILES | target | test | test system | conditions | how to read | quantity | value |
| --- | --- | --- | --- | --- | --- | --- | --- |
| N[C@H](C(=O)N1CCCC1)C1CCN(c2nccc3c(-c4ncc(Cl)cc4Cl)cccc23)CC1 | Substance-P receptor (TACR1, Homo sapiens, UniProt P25103) | functional response, agonist | – | 10 µM | – | response | 2% |
